Published values gathered from unrelated publications.
Numbered parts are unrelated; each lists some results of a single study.

Block 1 — method: RNA Bind-n-Seq; form: RNA; medium: in vitro; concentration: 365 nM; relative to: no-protein control; direction: higher = stronger binding; measurement: RBNS enrichment (R)
Target: RNA binding protein fox-1 homolog 2, RRM domain, GST-SBP tag (RBFOX2, Homo sapiens, UniProt O43251-10, residues 100-194)
Setting: natural RNA segment, single round, ends assumed
Target sequence (chain): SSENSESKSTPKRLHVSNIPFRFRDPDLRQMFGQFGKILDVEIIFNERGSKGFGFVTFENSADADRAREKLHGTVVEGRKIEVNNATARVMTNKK
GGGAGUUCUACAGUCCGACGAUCCACACACCUGUAUCCCUGGUAUCUAAGGCCUGUCCUCUAGUGCGAUUGUCAUCUCCAGGACUAUGAAAGAGGGAGGGUGGCGGUGUCUCUGUCUGCAAACAGUGUCAGGAUGGAAUUCUCGGGUGCCAA: 0.535
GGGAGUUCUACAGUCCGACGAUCAGUUGUUCAUUCCAGUCCUCUAAGUCUCAUUUCGUAUACAUUAUAUAAGCAAAUUAAGAAUUACUCAUUCAAAUUUUUCCAGUGUUAAUCGAUAAUAAAUGAUGGCUUGAUGGAAUUCUCGGGUGCCAA: 0.28
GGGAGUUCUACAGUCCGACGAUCGACUUUAAGGCAGGCAACACUGGACCAUAGUGGUGCAGGCCUUCUAUUGAGGCCAGAGGAGCAAGUGUGCUUCUUCCUUGUCCUUGUCCCAUCAUUGAGACCUUCAUCUAUGGAAUUCUCGGGUGCCAA: 0.223
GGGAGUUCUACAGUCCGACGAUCUUUUCUAUAUUGAGGUGGCCACCAUACUAAUAUUCUAAAUUUUCAAUAUUUGAACUUUUAACUCUUGACAUUGAAAAAAAAGGAUUUGGAGAAAUUACCAAGAUUUUAACUGGAAUUCUCGGGUGCCAA: 0.543
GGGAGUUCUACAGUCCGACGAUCACUUAUAUACAUUAGAUAAAAGGAGCUGUAUAAUUUAGCAGGAAGGGACUAUGGGAGAAUACUUUACUGUGAGUGGAAAAUGUUAGCACAUUUGACUGGUUUGCCCUGGAUGGAAUUCUCGGGUGCCAA: 1.43
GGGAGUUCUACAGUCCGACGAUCAAACACAUUAAGUUGAUUGAGUUGGACAUACGGUUCCUGAAGUAUCUUGAUUUGUGUUUUUUUUUUUUUAAUGUUUUAUUUCAAAAUGAUCUAUUUCAGUAAAUCUCUUGUGGAAUUCUCGGGUGCCAA: 0.897
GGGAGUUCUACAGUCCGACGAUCAAGAGUGGGGUGAGGAAGAAGCCACAUGACUGUGGAGAGAAGUGGGACAGGCCUCAGUCCCUAGAGGUGUGUUUAAGCUUGUUGGGCAAGAGCUGGAUGCGGAUCUUCGGUGGAAUUCUCGGGUGCCAA: 0.814
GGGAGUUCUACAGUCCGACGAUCGGCUUGGUGUUUAAUGGGUUAAAAAUAAGCCACUGCCUGACAUCCCAACAUUUGACACCCCAGCAAUGUGUGACUCCCCCAACAUUCCACUAUGCCAUCCUGCAGCUGAAUGGAAUUCUCGGGUGCCAA: 0.85
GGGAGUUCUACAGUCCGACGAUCGGGCUCUGCCCGUCCUGUUCUGCCCAUGGCCCAGCCCGGCCGCUCCUGCUGACCCCUCCUGGACGGGCUGGAGCUGGGCUCCUGCCUUUGCUGCUAACACUGGAGGCGGUUGGAAUUCUCGGGUGCCAA: 0.331
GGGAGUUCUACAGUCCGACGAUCAAUAAGCGUGCUAAAUUAAAUUGUCUUAAGGUUUUUCCACUUCAUUUUGUGACUUUGUGUGGUUCGAAUUUCUCAGUAUUUUAACCAGUGUGUUGAUGUUAAAGUCAAAGUGGAAUUCUCGGGUGCCAA: 2.98
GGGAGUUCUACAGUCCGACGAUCUAACUUUCUAUCCAGAAAAAGAGAUUAUUUGGGACUUGAGAUUUGCAGUGAUACCAACUUAUAGCAAUGAUGUACUUUAAGGGAACUACCCAACUAUGUUGUGAUAGAAGUGGAAUUCUCGGGUGCCAA: 0.502
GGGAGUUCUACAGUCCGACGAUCCGCUCUUGUGUCACUGCUGUCCUGAGGAAUUCAACUUCUCCAGAAGUGACCUCCUUUUCCUUAUUUAUAUUUCCUGGCCACUAUUCAGUUGUAAGAUAACAUUUGAAAUGUGGAAUUCUCGGGUGCCAA: 0.461

Block 2 — method: competition protein-binding microarray; form: double-stranded DNA, one strand shown; medium: in vitro; concentration: 2 µM; together with: Cbf1 competitor, 0.05 µM; direction: higher = stronger binding; measurement: fluorescence intensity
Target: Phosphate system positive regulatory protein PHO4, full length, GST-tagged (PHO4, Saccharomyces cerevisiae, UniProt P07270, residues 1-312)
Setting: whole 60-bp probe, lowest competitor level
Construct (chain): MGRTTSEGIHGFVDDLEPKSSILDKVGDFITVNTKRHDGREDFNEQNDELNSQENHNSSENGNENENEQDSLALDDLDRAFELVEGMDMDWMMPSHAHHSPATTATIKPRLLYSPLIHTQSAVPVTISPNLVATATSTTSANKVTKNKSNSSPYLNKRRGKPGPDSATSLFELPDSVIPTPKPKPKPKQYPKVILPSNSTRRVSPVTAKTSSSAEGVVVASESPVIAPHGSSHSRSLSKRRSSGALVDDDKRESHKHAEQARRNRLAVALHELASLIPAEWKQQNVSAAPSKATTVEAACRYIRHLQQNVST
AAATTACTAAGTTGGAGAGTGGGTGACGCCGTATGAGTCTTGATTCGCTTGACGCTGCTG: 4110 a.u.
CATACCCAACCTTGTCACACGACTTAAGATATTTGTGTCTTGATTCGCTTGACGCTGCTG: 6820 a.u.
CGTCCTAGTGATTGTTCTGTGGGTGCCATGAGGAAGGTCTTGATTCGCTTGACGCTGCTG: 6270 a.u.
CGTCCTAGTGATTGTCACTTTACTTCCATGAGGAAGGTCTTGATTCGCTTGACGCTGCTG: 4700 a.u.
CGTCCTAGTGATTGTCACTGAACTTCCATGAGGAAGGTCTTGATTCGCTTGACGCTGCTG: 3810 a.u.
GTGGCAGGAGGGTTTCTATTTAGTGTTCGGTAAAGGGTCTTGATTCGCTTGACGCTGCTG: 5000 a.u.
CTAACGAAGGTTTGTTAAGTGGGTGACAAGCCAAGTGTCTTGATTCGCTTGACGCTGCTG: 4420 a.u.
CGGGGTTAAGTTTCGCACGTGTTTTGCTTGCAGCAGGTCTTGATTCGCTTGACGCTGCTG: 15400 a.u.
CGTCCTAGTGATTGTATCGTGGGTGCCATGAGGAAGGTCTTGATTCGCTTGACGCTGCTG: 9030 a.u.
CGGGGTTAAGTTTGTTTAGTGGGTGGCTTGCAGCAGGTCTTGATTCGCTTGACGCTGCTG: 4320 a.u.
AGGGTCTGATCCCTTCCCGTGGGTAGACCGATGACCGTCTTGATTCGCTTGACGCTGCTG: 6990 a.u.
TTGGTAGAGGCGGTTCTCGTGGTGAAGCCCCTGGTGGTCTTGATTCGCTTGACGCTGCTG: 5580 a.u.
ATATTTCCACTTACCCATGTGTTTATAATCGCGGGAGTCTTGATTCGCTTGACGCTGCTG: 9010 a.u.
TGAACCCTTTTTGAGCATGTGTCAAAATCCAATGCAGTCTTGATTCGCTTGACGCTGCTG: 10000 a.u.
ATAGAACGCAGAGCCCACGTGTGCCTGGCACTTGGCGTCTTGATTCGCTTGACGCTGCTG: 16700 a.u.
CTAACGAAGGTTTTTCACGTGGCGTACAAGCCAAGTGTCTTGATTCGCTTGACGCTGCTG: 13200 a.u.

Block 3 — method: protein binding microarray; form: double-stranded DNA, one strand shown; medium: in vitro; concentration: not given; relative to: not given; direction: higher = stronger binding; measurement: E-score
Target: Histone acetyltransferase KAT6A, winged helix 1, GST fusion (KAT6A, Homo sapiens, UniProt Q92794, residues 1-85)
Setting: 8-mer, flanks averaged, mean of 2 arrays, mostly near background
Target sequence (chain): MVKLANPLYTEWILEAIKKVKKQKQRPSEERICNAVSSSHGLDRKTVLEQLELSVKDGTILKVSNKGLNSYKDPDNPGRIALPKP
ATCTGGCC: 0.00369
GGACACCC: 0.0351
AATAGGAG: -0.105
CCGAAAGG: 0.00681
GCCTCCTA: -0.0356
GACTACCC: 0.0326
CACCTTCC: -0.0702
CAGCCAGA: -0.156
TAGTGGGA: -0.336
CCGCCACG: 0.346
ACCAAGAC: 0.0199
ACTAAAGC: -0.0296
AAGAAACG: -0.0786
CAAGCTCA: -0.28
GGTGCACC: -0.114
AGAATTGA: -0.18
AGCATATA: -0.187
ATAAGTAG: 0.0243
GCACAATA: -0.0961

Block 4 — method: RNA Bind-n-Seq; form: RNA; medium: in vitro; concentration: 200 nM; setting: whole 134-nt RNA, ends assumed; together with: 150 mM KCl; relative to: input library; direction: higher = stronger binding; measurement: log2 enrichment
Target: Ras GTPase-activating protein-binding protein 1, full length (G3BP1, Homo sapiens, UniProt Q13283)
Chain of UniProt Q13283 (whole entry, looked up): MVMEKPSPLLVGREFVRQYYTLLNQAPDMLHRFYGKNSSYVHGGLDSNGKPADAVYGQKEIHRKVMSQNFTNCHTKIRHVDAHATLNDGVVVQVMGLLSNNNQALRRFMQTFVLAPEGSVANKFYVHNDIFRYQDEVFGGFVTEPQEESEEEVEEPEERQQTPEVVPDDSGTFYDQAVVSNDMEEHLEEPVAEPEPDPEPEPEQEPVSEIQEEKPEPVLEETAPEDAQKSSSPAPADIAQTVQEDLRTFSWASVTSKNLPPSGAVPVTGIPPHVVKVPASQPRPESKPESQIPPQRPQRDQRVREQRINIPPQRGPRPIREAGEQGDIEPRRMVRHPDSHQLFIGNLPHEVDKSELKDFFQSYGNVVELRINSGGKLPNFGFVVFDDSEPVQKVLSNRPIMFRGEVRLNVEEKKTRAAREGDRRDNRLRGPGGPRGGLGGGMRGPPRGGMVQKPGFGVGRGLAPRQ
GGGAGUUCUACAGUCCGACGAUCUGCUGGAGAUGCAAUAUAUGAGGUGGUGAGUCUACAGCGAGAGUCUGACAAGGAGGAACCAGUCACUCCUACUAGUGGAGGGGGUCCAAUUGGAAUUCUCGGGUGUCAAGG: -1.81
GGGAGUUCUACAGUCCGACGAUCCAAGUCCUGUGCUACACAUCGUAUGUACCGAAUCGGUUUGGUUUGGGGUUUGGGGAAAGUAUUAUGUUACGCCGUUCGGAUCUGCACUUCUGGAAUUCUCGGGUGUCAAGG: -0.325
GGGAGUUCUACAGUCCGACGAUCCUCAAGUCCUGUGCUACACAUCGUAUGUACCGAAUCGGAAGGGAAGGAAGGGGAAAGUAUUAUGUUACGCCGUUCGGAUCUGCACUUCCAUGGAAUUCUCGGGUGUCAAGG: 0.169
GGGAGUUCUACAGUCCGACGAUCACCAUGCAGGUGGGCAUCUUUGGGAAGUGGGGCAAGGGGGGGAUAGGGAUGGGGGUAACACUUUGGGAACAGGUGGUCCCAGGUCGUUUCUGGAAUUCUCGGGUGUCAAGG: 1.14
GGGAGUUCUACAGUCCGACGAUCGUCCUGUGCUACACAUCGUAUGUACCGAAUCGGGGAAAAAGGAAAAAGGGAAAAAGGGGAAAGUAUUAUGUUACGCCGUUCGGAUCUGCAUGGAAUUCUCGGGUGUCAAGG: -0.301
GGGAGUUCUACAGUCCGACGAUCUUCCUCAAGUCCUGUGCUACACAUCGUAUGUACCGAAUCGGUGGAGGAGGAAAGUAUUAUGUUACGCCGUUCGGAUCUGCACUUCCAGCAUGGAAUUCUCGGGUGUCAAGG: -0.987
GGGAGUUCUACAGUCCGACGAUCUAACUUUAGAGGAGGAUCUGAUGGAUAUGGCAGUGGACGUGGAUUUGGGGAUGGCUAUAAUGGGUAUGGAGGAGGACCUGGAGGUGGUAAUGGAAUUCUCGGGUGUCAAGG: 0.211
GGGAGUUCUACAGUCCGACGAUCCCUCAAGUCCUGUGCUACACAUCGUAUGUACCGAAUCGGGAGGGAGGAGGGGAAAGUAUUAUGUUACGCCGUUCGGAUCUGCACUUCCAGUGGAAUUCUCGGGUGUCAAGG: 1.46
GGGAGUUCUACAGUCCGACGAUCGUCCUGUGCUACACAUCGUAUGUACCGAAUCGGUUUUUGGUUUUUGGGGUUUUUGGGGAAAGUAUUAUGUUACGCCGUUCGGAUCUGCACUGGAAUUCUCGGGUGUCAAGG: -0.713
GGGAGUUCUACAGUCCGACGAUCACCAUGCAGGUGGGCAUCUUUGGGAAGUAGGGCAAGGGGGGGAUAGGGAGGGGGGUAACACUUUGGGAACAGGUGGUCCCAGGUCGUUUCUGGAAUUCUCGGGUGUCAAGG: 0.961

Excerpt of the above (block 3):
ATCTGGCC: 0.00369
ACTAAAGC: -0.0296
AAGAAACG: -0.0786
GCACAATA: -0.0961
ATAAGTAG: 0.0243
